Published values collected from several papers.
Numbered parts are unrelated; each lists some results of a single study.
Sequence of UniProt P22607 (whole entry, unmodified, looked up): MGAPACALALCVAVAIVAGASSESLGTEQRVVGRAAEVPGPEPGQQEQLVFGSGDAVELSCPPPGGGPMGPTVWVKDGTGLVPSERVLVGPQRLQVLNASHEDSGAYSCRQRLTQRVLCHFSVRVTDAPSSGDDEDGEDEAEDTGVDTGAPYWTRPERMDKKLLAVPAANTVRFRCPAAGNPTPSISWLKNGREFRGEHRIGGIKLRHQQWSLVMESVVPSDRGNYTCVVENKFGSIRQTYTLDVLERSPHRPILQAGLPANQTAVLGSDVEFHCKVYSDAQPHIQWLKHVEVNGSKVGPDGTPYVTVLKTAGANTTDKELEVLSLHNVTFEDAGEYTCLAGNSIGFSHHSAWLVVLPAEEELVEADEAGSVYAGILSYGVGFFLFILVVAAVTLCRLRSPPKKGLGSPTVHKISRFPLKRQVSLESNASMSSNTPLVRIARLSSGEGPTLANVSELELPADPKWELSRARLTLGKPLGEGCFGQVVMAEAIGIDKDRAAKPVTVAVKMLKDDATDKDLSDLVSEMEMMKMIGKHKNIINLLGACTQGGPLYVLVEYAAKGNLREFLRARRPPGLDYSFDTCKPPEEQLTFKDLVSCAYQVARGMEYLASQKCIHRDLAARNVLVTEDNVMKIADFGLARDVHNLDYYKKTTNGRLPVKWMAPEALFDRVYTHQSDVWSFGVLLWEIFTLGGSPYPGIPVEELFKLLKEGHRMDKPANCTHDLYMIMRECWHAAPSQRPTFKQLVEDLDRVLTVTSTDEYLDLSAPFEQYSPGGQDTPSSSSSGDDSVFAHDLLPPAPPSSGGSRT
Sequence of UniProt Q9BVS4 (whole entry, looked up): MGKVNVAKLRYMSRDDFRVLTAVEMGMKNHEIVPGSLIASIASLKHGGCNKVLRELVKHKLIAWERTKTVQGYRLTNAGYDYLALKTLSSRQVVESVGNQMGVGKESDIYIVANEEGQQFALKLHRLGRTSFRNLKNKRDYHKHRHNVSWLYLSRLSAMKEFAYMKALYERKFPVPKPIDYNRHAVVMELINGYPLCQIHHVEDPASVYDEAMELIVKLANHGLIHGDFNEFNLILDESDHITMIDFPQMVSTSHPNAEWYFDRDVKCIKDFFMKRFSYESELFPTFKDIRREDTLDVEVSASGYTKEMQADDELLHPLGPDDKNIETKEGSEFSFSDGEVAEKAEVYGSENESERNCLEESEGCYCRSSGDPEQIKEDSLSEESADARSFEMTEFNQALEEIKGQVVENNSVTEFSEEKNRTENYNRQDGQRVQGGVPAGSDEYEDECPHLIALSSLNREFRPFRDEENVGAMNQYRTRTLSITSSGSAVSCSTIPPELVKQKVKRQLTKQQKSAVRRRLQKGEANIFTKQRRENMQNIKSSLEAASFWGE
Sequence of UniProt P35590 (whole entry, looked up): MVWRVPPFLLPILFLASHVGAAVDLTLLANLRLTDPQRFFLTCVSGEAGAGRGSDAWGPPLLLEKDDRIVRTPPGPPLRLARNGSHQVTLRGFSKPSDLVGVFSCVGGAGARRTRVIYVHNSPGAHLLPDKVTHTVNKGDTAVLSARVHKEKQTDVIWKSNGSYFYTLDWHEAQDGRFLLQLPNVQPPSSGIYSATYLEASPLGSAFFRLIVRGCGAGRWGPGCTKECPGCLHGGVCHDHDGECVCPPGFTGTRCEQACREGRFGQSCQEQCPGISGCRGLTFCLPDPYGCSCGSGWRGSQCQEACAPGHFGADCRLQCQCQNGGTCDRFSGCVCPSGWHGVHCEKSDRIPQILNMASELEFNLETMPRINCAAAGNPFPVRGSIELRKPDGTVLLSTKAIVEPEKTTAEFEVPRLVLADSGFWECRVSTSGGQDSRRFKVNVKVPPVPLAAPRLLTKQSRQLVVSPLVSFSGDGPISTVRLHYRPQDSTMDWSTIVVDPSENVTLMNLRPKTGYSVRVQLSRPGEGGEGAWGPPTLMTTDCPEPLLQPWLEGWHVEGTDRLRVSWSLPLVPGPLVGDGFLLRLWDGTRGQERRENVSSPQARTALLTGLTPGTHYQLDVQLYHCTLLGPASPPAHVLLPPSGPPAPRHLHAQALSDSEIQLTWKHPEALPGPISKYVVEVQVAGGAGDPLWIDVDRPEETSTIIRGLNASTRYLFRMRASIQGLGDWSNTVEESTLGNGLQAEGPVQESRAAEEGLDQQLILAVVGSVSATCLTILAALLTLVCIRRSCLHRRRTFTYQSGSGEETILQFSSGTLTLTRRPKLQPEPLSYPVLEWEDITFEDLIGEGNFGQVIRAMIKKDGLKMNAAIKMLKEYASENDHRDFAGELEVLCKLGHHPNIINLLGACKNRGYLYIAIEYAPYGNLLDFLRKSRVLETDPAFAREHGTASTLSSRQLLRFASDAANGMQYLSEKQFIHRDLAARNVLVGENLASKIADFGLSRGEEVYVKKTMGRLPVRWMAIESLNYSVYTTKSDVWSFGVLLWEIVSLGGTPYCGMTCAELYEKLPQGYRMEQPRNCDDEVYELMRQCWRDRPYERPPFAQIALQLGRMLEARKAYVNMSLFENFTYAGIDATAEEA

Series 1
Cell line: A-375
Concentration: 100 µM
Time: 18 h
Endpoint: viability
Compound = CC[C@H]1OC(=O)[C@@](C)(F)C(=O)[C@H](C)[C@@H](O[C@@H]2O[C@H](C)C[C@H](N(C)C)[C@H]2O)[C@](C)(OC)C[C@@H](C)C(=O)[C@H](C)[C@H]2N(CCCCn3cc(-c4cccc(N)c4)nn3)C(=O)O[C@]12C; result = 11.6%
Compound = CC1=NS(=O)(=O)c2cc(Cl)ccc2N1; result = 100%
Compound = COc1nc(C)nc(Cl)c1N=C1NCCN1; result = 103%
Compound = C=CCc1ccc(O)c(-c2cc(CC=C)ccc2O)c1; result = 7.75%

Series 2
Target: Rhodopsin kinase GRK7 (GRK7, Homo sapiens, UniProt Q8WTQ7)
Effect on: enzyme activity
Mode: inhibitor
Concentration: 0.5 µM
Baseline: control
Endpoint: remaining activity
Target sequence (Q8WTQ7 1-553): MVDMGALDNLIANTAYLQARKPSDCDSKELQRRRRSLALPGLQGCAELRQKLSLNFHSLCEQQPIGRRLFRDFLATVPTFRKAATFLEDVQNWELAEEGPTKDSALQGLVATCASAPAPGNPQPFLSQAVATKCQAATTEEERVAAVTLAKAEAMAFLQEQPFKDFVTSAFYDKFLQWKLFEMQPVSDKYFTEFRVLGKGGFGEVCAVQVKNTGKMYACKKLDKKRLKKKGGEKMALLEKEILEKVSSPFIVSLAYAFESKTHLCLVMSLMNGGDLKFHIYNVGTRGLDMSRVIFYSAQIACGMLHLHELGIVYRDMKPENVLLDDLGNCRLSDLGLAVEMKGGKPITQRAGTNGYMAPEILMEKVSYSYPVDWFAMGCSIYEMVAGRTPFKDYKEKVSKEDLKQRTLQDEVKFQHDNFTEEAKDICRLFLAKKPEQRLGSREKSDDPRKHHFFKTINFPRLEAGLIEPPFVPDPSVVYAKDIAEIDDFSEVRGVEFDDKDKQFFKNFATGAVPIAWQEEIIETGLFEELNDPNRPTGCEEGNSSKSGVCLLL
SMILES = Cc1ccc(Nc2nccc(N(C)c3ccc4c(C)n(C)nc4c3)n2)cc1S(N)(=O)=O; result = 96.5%
SMILES = COc1ccc(C(=O)Nc2sc3c(c2C(N)=O)CCCC3)cc1OC; result = 95.5%
SMILES = Oc1ccc(-c2nc(-c3ccncc3)c(-c3ccc(F)cc3)[nH]2)cc1; result = 105%
SMILES = O=S(=O)(c1cccc2cnccc12)N1CCCNCC1; result = 114%
SMILES = CCOC(=O)c1c(C)[nH]c(/C=C2\C(=O)Nc3ccccc32)c1C; result = 86.3%
SMILES = O=C1NC(=O)C(c2cn(CCCO)c3ncccc23)=C1c1cnccn1; result = 118%
SMILES = Cc1cccc(-c2[nH]c(C(C)(C)C)nc2-c2ccc3c(c2)OCO3)n1; result = 103%
SMILES = Nc1ccc2ncnc(NCCc3ccc(Oc4ccccc4)cc3)c2c1; result = 104%
SMILES = CC(C)[C@H](CO)Nc1nc(Nc2cc(N)cc(Cl)c2)c2ncn(C(C)C)c2n1; result = 79.3%
SMILES = O=C(CCCc1ccc(-c2ccccc2F)cc1)Nc1ccc(O)cc1; result = 109%
SMILES = COc1ccc(CNC(=O)Nc2ncc([N+](=O)[O-])s2)cc1; result = 103%
SMILES = COc1cc2ncnc(Nc3ccc(F)c(Cl)c3)c2cc1OCCCN1CCOCC1; result = 96.2%
SMILES = Cn1c2ccccc2c2c3c(c4c5ccccc5n(CCC#N)c4c21)CNC3=O; result = 37.9%

Series 3
Compound: CC(C)n1cnc(-c2ccc(F)cc2)c1-c1ncc(C(=O)Nc2ccc(N3CCN(C)CC3)cc2)[nH]1
Technique: phase 2a trial
Host: idiopathic pulmonary fibrosis patients
Endpoint: patients with abdominal discomfort
dose = dose not given; setting = adverse event grade 3, all dose arms pooled; result = 0%
dose = dose not given; setting = adverse event grade 5, all dose arms pooled; result = 0%
dose = dose not given; setting = adverse event grade 2, all dose arms pooled; result = 0%
dose = 30 mg once daily; setting = adverse event grade 4; result = 0%

Series 4
SMILES: CC(=O)Nc1c(C(C)=O)c(=O)n(C)c2nc(-c3ccc(Cl)cc3Cl)c(-c3ccc(Cl)cc3)cc12
Effect on: cell-free assay
Technique: competition with immobilised ligand
Concentration: 1 µM
Endpoint: remaining binding
target = FGFR3 (Homo sapiens, UniProt P22607, G697C); result = 100%
target = TIE1 (Homo sapiens, UniProt P35590); result = 100%
target = EGFR (Homo sapiens, UniProt P00533); result = 100%
target = RIOK2 (Homo sapiens, UniProt Q9BVS4); result = 100%
target = GRK7 (Homo sapiens, UniProt Q8WTQ7); result = 100%

For quick reference, copied from above (series 2):
SMILES = CCOC(=O)c1c(C)[nH]c(/C=C2\C(=O)Nc3ccccc32)c1C; result = 86.3%
SMILES = O=C1NC(=O)C(c2cn(CCCO)c3ncccc23)=C1c1cnccn1; result = 118%
SMILES = Cc1cccc(-c2[nH]c(C(C)(C)C)nc2-c2ccc3c(c2)OCO3)n1; result = 103%
